Experimental data pooled from the literature.
Compare with care: the assays were run in different laboratories. “And” joins repeats or separate records; there may be more than shown. ± gives the spread as reported.
Method: steady-state kinetics
B1: enzyme N249W (Thermobifida fusca, UniProt Q47RK4); chain MTDVYILDAVRTPFGRYGGALSGIRPDDLAAHVLRALAERSPGLDPAAVDDVFFGDANGAGEDNRNVARMAALLAGWPTSVPGVTLNRLCGSGMESVIAANRAIAVGDASLAVAGGVESMSRAPWVLPKPAQGFPTGHETLYSTTLGWRMVNPAMPEQWTVSLGESTEQVAATYGISRAEQDAFALRSHERAARAWAEGVFDAEITQIPGAELERDESIRETSAEKLAALKPAFRPDGTITAGNASPLWDGAAALLIGDAAAAERVGREPLARIVSRGVAAVDPDVFGIGPVQAAEIALRRAGIGWDDLSVVELNEAFAAQSLACLKLWPDLDPEIVNPNGGAIAIGHPLGASGARIVGTLAHELHRRGGGWGLAAICIGVGQGLAVVLHR
B2: enzyme H189D (Acetivibrio thermocellus, UniProt A3DJ38); chain MKLTIPELSLVVLIGSSGSGKSTFAKKHFKPTEVISSDFCRGLVSDDENDQTVTGAAFDVLHYIVSKRLQLGKLTVVDATNVQESARKPLIEIAKDYHCFPVAVVFNLPEKVCQERNKNRTDRQVEEYVIRKHTQQLKKSIKGLQREGFRYVYILNSPEEVEEVVFERQPLWNNKKDEHGPFDIIGDIDGCYDELKMLLEKLGYLIEEVEGGVGSGKYRVTHPEGRKVLFLGDLVDRGPKITEVLKLVMGMVKSGIALCVPGNHDVKLLRKLNGRDVQITHGLDRTLEQLAKEPQEFIEEVKAFIDGLVSHYVLDDGKLVVAHAGMKEEFQGRGSGKVREFALYGETTGETDEYGLPVRYDWASDYRGKALVVYGHTPQAEVLKVNNTINIDTGCVFGGKLTAYRYPEREIVDVKALKTYYEPAKPFLPKEDMAERFEARTDNDILDINDVLGKKIITTRLMSSITIHEENSIAALEVMSRFAADPHWLIYLPPTMSPCETSKKEGMLEHPIEAFEYFRTRGVGKVVCEQKHMGSRAVVIVCKDSQVAEKRFGVLDGTAGICYTRTGRHFFDDMQLEAELIDRVRKVLDKSGFWGDFNTDWVCLDCELMPWSAKAQKLLEEQYSAVGISGRVVLDEAVKLLKQASLNKTVSFDVSRQTSGKNADINELLQRFTERSEMMQKYVEAYRKYCWPVNSIDDLKLAPFHILATEGKVHSDKNHIWHMDTIAKYCTQDDSLIMATNHILVDVTDAESVDKGIKWWEDLTASGGEGMVVKPYDFIVKNGRELLQPAVKCRGREYLRIIYGPEYTMDENIERLRNRAVGKKRSLALREFSLGMEALERFVRNEPLYRVHECVFGVLALESEPVDPRL
B3: enzyme H376N (Acetivibrio thermocellus, UniProt A3DJ38); chain MKLTIPELSLVVLIGSSGSGKSTFAKKHFKPTEVISSDFCRGLVSDDENDQTVTGAAFDVLHYIVSKRLQLGKLTVVDATNVQESARKPLIEIAKDYHCFPVAVVFNLPEKVCQERNKNRTDRQVEEYVIRKHTQQLKKSIKGLQREGFRYVYILNSPEEVEEVVFERQPLWNNKKDEHGPFDIIGDIHGCYDELKMLLEKLGYLIEEVEGGVGSGKYRVTHPEGRKVLFLGDLVDRGPKITEVLKLVMGMVKSGIALCVPGNHDVKLLRKLNGRDVQITHGLDRTLEQLAKEPQEFIEEVKAFIDGLVSHYVLDDGKLVVAHAGMKEEFQGRGSGKVREFALYGETTGETDEYGLPVRYDWASDYRGKALVVYGNTPQAEVLKVNNTINIDTGCVFGGKLTAYRYPEREIVDVKALKTYYEPAKPFLPKEDMAERFEARTDNDILDINDVLGKKIITTRLMSSITIHEENSIAALEVMSRFAADPHWLIYLPPTMSPCETSKKEGMLEHPIEAFEYFRTRGVGKVVCEQKHMGSRAVVIVCKDSQVAEKRFGVLDGTAGICYTRTGRHFFDDMQLEAELIDRVRKVLDKSGFWGDFNTDWVCLDCELMPWSAKAQKLLEEQYSAVGISGRVVLDEAVKLLKQASLNKTVSFDVSRQTSGKNADINELLQRFTERSEMMQKYVEAYRKYCWPVNSIDDLKLAPFHILATEGKVHSDKNHIWHMDTIAKYCTQDDSLIMATNHILVDVTDAESVDKGIKWWEDLTASGGEGMVVKPYDFIVKNGRELLQPAVKCRGREYLRIIYGPEYTMDENIERLRNRAVGKKRSLALREFSLGMEALERFVRNEPLYRVHECVFGVLALESEPVDPRL
B4: ATIC (Cryptococcus neoformans, UniProt J9VJP1); chain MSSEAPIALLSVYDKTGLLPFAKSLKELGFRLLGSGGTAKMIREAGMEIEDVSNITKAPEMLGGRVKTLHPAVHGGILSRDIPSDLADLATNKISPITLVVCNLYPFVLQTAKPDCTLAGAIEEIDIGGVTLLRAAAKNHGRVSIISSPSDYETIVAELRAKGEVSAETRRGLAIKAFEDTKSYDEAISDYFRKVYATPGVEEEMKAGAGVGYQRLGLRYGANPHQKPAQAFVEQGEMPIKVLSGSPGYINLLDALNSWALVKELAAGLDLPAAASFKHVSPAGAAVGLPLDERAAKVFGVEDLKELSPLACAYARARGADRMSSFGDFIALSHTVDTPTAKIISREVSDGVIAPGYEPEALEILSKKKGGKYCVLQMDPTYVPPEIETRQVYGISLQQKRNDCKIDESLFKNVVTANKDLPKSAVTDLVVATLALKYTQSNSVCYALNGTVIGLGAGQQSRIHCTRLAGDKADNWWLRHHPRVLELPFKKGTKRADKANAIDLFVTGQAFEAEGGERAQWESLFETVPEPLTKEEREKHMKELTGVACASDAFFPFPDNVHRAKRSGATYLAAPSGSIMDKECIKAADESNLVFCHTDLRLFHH
B5: protein F432W (Streptomyces toyocaensis, UniProt Q8KLK7); chain MTTVLPPLEDTDGLWAALTEAAASVEKLLATLPEHGARSSAERAEIAAAHDAARALRVRFLDTHADAVYDRLTDHRRVHLRLAELVEAAATAFPGLVPTQQQLAVERSLPQAAKEGHEIDQGIFLRAVLRSPLAGPHLLDAMLRPTPRALELLPEFVRTGEVEMEAVHLERRDGVARLTMCRDDRLNAEDGQQVDDMETAVDLALLDPGVRVGLLRGGVMSHPRYRGKRVFSAGINLKYLSQGGISLVDFLMRRELGYIHKLVRGVLTNDDRPGWWHSPRIEKPWVAAVDGFAIGGGAQLLLVFDRVLASSDAYFSLPAAKEGIIPGAANLRLGRFAGPRVSRQVILEGRRIWAKEPEARLLVDEVVEPDELDAAIERSLTRLDGDAVLANRRMLNLADESPDGFRAYMAEFALMQALRLYGHDVIDKVGRWGGRPPA
B6: protein Y24F (uncultured bacterium HF130_AEPn_1, UniProt D0E8I5); chain MSLSNSSKVSVLISLLEKSRDLDFIGEAINQLEHSLQCAYFAQRSGADNEMVLAALLHDLGHYCNDTSFEDMGGYGVWQHEKVGADYLRGLGFSERVACLIEGHVAAKRYLVSSKASYLKNLSDASRKTLEYQGGPMDEGERRLFEEREDFKDCLKIRAWDEKGKQTDLKVPGPEHYRKMMEEHLSENQN
B7: UGT84B1 (Arabidopsis thaliana, UniProt O22182); chain MGSSEGQETHVLMVTLPFQGHINPMLKLAKHLSLSSKNLHINLATIESARDLLSTVEKPRYPVDLVFFSDGLPKEDPKAPETLLKSLNKVGAMNLSKIIEEKRYSCIISSPFTPWVPAVAASHNISCAILWIQACGAYSVYYRYYMKTNSFPDLEDLNQTVELPALPLLEVRDLPSFMLPSGGAHFYNLMAEFADCLRYVKWVLVNSFYELESEIIESMADLKPVIPIGPLVSPFLLGDGEEETLDGKNLDFCKSDDCCMEWLDKQARSSVVYISFGSMLETLENQVETIAKALKNRGLPFLWVIRPKEKAQNVAVLQEMVKEGQGVVLEWSPQEKILSHEAISCFVTHCGWNSTMETVVAGVPVVAYPSWTDQPIDARLLVDVFGIGVRMRNDSVDGELKVEEVERCIEAVTEGPAAVDIRRRAAELKRVARLALAPGGSSTRNLDLFISDITIA
B8: enzyme L163H/N249W (Thermobifida fusca, UniProt Q47RK4); chain MTDVYILDAVRTPFGRYGGALSGIRPDDLAAHVLRALAERSPGLDPAAVDDVFFGDANGAGEDNRNVARMAALLAGWPTSVPGVTLNRLCGSGMESVIAANRAIAVGDASLAVAGGVESMSRAPWVLPKPAQGFPTGHETLYSTTLGWRMVNPAMPEQWTVSHGESTEQVAATYGISRAEQDAFALRSHERAARAWAEGVFDAEITQIPGAELERDESIRETSAEKLAALKPAFRPDGTITAGNASPLWDGAAALLIGDAAAAERVGREPLARIVSRGVAAVDPDVFGIGPVQAAEIALRRAGIGWDDLSVVELNEAFAAQSLACLKLWPDLDPEIVNPNGGAIAIGHPLGASGARIVGTLAHELHRRGGGWGLAAICIGVGQGLAVVLHR
UniProt P30986, sequence (whole entry, looked up): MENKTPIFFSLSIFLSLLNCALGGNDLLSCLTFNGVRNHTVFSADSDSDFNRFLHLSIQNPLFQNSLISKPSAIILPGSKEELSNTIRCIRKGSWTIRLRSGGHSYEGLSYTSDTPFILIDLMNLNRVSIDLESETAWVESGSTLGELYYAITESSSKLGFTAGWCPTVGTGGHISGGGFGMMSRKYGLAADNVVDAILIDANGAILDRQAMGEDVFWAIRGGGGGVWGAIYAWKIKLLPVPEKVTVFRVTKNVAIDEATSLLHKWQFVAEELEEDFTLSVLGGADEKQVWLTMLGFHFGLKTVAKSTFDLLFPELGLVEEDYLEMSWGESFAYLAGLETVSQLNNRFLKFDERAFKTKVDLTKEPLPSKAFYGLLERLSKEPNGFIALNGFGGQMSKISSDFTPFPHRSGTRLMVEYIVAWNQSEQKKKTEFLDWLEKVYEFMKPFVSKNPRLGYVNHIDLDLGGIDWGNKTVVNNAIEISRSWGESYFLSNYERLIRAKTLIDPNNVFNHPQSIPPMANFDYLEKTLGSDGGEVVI

Substance | substrate | pH | temperature | setting | added | kcat
B1 (enzyme N249W) | CC(C)(COP(=O)(O)OP(=O)(O)OC[C@H]1O[C@@H](n2cnc3c(N)ncnc32)[C@H](O)[C@@H]1OP(=O)(O)O)[C@@H](O)C(=O)NCCC(=O)NCCSC(=O)CCC(=O)O | pH 7.4 | 37 °C | – | – | 0.0055 ± 5.33e-05 s⁻¹
Cj1427c (Campylobacter jejuni, UniProt Q0P8I7) | O=C(O)CCC(=O)C(=O)O | pH 7.4 | 30 °C | apparent | – | 0.55 ± 0.01 s⁻¹
plcB (Listeria monocytogenes, UniProt P33378) | CCCCCC(=O)OC[C@H](COP(=O)([O-])OCC[N+](C)(C)C)OC(=O)CCCCC | pH 6 | 37 °C | – | – | 12.8 ± 1.5 s⁻¹
B2 (enzyme H189D) | Nc1ncnc2c1ncn2[C@@H]1O[C@H](CO)[C@H]2OP(=O)(O)O[C@H]21 | pH 7.5 | 45 °C | – | – | 34.3 ± 8 s⁻¹
BBE1 (Eschscholzia californica, UniProt P30986) | COc1ccc(C[C@H]2c3cc(O)c(OC)cc3CCN2C)cc1O | pH 9 | 25 °C | apparent | – | 5.4 ± 0.3 s⁻¹
B3 (enzyme H376N) | Nc1ncnc2c1ncn2[C@@H]1O[C@H](CO)[C@H]2OP(=O)(O)O[C@H]21 | pH 7.5 | 45 °C | – | – | 5.13 ± 0.3 s⁻¹
B4 (ATIC) | NC(=O)c1ncn([C@@H]2O[C@H](COP(=O)(O)O)[C@@H](O)[C@H]2O)c1N | pH 7.5 | 37 °C | KCl 25 mM, apparent | N10-formyl-tetrahydrofolate 0.1 mM | 7.5 ± 0.1 s⁻¹
B5 (protein F432W) | CC(C)(COP(=O)(O)OP(=O)(O)OC[C@H]1O[C@@H](n2cnc3c(N)ncnc32)[C@H](O)[C@@H]1OP(=O)(O)O)[C@@H](O)C(=O)NCCC(=O)NCCSC(=O)Cc1cc(O)cc(O)c1 | pH 7.5 | 24 °C | – | O2 | 0.081 ± 0.006 s⁻¹
B6 (protein Y24F) | NC[C@H](O)P(=O)(O)O | pH 7 | 25 °C | NaCl 150 mM | O2, Fe(II) 100 µM, ascorbate 100 µM | 4.5 s⁻¹ and 2 s⁻¹
B7 (UGT84B1) | O=C(O)Cc1ccccc1 | pH 7.5 | 30 °C | – | – | 0.0147 ± 0.000833 s⁻¹
B8 (enzyme L163H/N249W) | CC(C)(COP(=O)(O)OP(=O)(O)OC[C@H]1O[C@@H](n2cnc3c(N)ncnc32)[C@H](O)[C@@H]1OP(=O)(O)O)[C@@H](O)C(=O)NCCC(=O)NCCSC(=O)CCC(=O)O | pH 7.4 | 37 °C | – | – | 0.0065 ± 0.0007 s⁻¹
aacA-aphD (Staphylococcus aureus, UniProt P0A0C1) | CN[C@@H]1[C@@H](O)[C@@H](O[C@@H]2[C@@H](O)[C@H](O[C@H]3OC(CNCCO)=CC[C@H]3N)[C@@H](N)C[C@H]2NC(=O)[C@@H](O)CCN)OC[C@]1(C)O | pH 7.5 | 25 °C | – | – | 0.126 ± 0.004 s⁻¹

A few entries again:
Substance | substrate | pH | temperature | setting | added | kcat
Cj1427c (Campylobacter jejuni, UniProt Q0P8I7) | O=C(O)CCC(=O)C(=O)O | pH 7.4 | 30 °C | apparent | – | 0.55 ± 0.01 s⁻¹
